Earlier results that unrelated publications cite.
± marks the error that the study gave.

O=C(NO)c1ccc(NC(=O)[C@@H](NC(=O)c2ccc3ccccc3c2)c2ccccc2)cc1
IC50 (U-937; cell viability, MTT): 1.32 µM

COc1cc(/C=C/C(=O)NCCc2ccc(OC)c(OC)c2)ccc1O
IC50 (RAW264.7; nitric oxide production; 24 h, added: LPS 100 ng/mL): > 10 µM

CCN(CC)c1ccc2nc3c4ccccc4/c(=N/c4ccncc4)cc-3oc2c1
IC50 (L6 rat myoblasts; cytotoxicity): 22 µg/mL

COc1cc(/C=N/N2C(=O)c3ccccc3NC2c2ccc(O)c(OC)c2)ccc1O (stereo not drawn)
IC50 (human renal tubule TH-1; cytotoxicity): > 1000 µM

N=C(NO)NN=Cc1nccc2c([N+](=O)[O-])cccc12
IC50 (CCRF-CEM; cell growth): 3 µM

CCC1=C(O)c2c(oc(-c3ccc4ccccc4c3)cc2=O)C(CC)(CC)C1=O
IC50 (HCT-8; cell growth, SRB): 1.29 µM

CC1=C(CO)C(=O)O[C@@H]([C@@H](C)[C@H]2CC[C@H]3[C@@H]4C[C@H]5O[C@]56[C@@H](O)C=CC(=O)[C@]6(CO)[C@H]4CC[C@]23C)C1
IC50 (Hs-578T; cell growth): 2.22 µM

Cc1ccc2nc(SCc3cn(-c4cccc(C(=O)O)c4)nn3)n(Cc3ccccc3)c(=O)c2c1
IC50 (HCT-116): 4.47 µM

Cc1ccc(C(C)C)cc1.O=C(N=P(c1ccccc1)(c1ccccc1)c1ccccc1)c1ccccn1.[Cl-].[Cl][Ru+]
IC50 (patient-derived renal proximal tubular cells; cytotoxicity): 13.8 ± 1.46 µM

FC(F)(F)c1ccc2nc3c4cccnc4c4ncccc4c3nc2c1.[Cl-].[Cl-].[Ru+2].c1ccncc1.c1ccncc1.c1ccncc1.c1ccncc1
IC50 (L-O2; phototoxicity; light irradiation): 29.3 ± 1.5 µM

C[C@@H](Nc1c(-c2c(F)cc(C#CCCN(C)C)cc2F)c(Cl)nc2ncnn12)C(C)(C)C
acetylated α-tubulin level (HEK293; 10 µM, 4 h, unit not given; reference: vehicle (DMSO)): 6.94 ± 0.22

CC(C)(C)C1=CC(=NNC(=O)c2ccncc2)C=C(C(C)(C)C)C1=O
IC50 (U2OS; cell viability): > 100 µM

N#CC1=C(N)Nc2c(ccc3[nH]c4ccccc4c23)C12C(=O)N(Cc1cn(Cc3ccc(C(F)(F)F)cc3)nn1)c1ccccc12 (stereo not drawn)
IC50 (HeLa; cell growth): 3.54 µM

O=C1OCC2=C1C(c1cccc([N+](=O)[O-])c1)C1=C(N2)C(=O)c2ccccc2C1=O (stereo not drawn)
IC50 (HepG2 cells; cell growth): < 0.039 µM

COc1cc(NC(=O)/C(C#N)=C/c2c[nH]c3ccccc23)cc(OC)c1OC
IC50 (Huh-7; cell growth): 5 µM

CC1=C2[O][Ru-]([Cl])[O+]=C2C=CN1CCCCCCN1C=CC2=[O+][Ru-]([Cl])[O]C2=C1C.Cc1ccc(C(C)C)cc1.Cc1ccc(C(C)C)cc1
IC50 (SW480; MTT): 26 ± 8 µM

CCC1=C(O)c2c(oc(-c3cc4ccccc4s3)cc2=O)C(CC)(CC)C1=O
IC50 (KB; cell growth, SRB): 11.2 µM

O=C1OCC2=C1C(c1ccccc1[N+](=O)[O-])C1=C(N2)C(=O)c2ccccc2C1=O (stereo not drawn)
IC50 (MCF7 cells; cell growth): > 2.5 µM

CC1=C(CO)C(=O)O[C@@H]([C@@H](C)[C@H]2CC[C@H]3[C@@H]4C[C@H]5O[C@]56[C@@H](O)C=CC(=O)[C@]6(C)[C@H]4CC[C@]23C)C1
IC50 (NCI-H460; cell growth): 0.38 µM

Oc1cccc(-c2cccc(O)n2)n1.[Cl-].[Cl-].[Ru+2].c1cnc2c(c1)c1c(c3cccnc32)OCCO1.c1cnc2c(c1)c1c(c3cccnc32)OCCO1
IC50 (HeLa; cell viability; dark): 730 µM

CC(C)N(P(c1ccccc1)c1ccccc1)P(c1ccccc1)c1ccccc1.Cc1ccc(C(C)C)cc1.F[B-](F)(F)F.[Cl][Ru+]
IC50 (A2780R platinum-resistant ovarian cancer; cell growth): 2.2 µM

CCC1=C(O)c2c(oc(-c3ccc4cc(OC)ccc4c3)cc2=O)C(CC)(CC)C1=O
IC50 (SK-BR-3; cell growth, SRB): 8.37 µM

COc1ccccc1NC(=O)N[C@H](C(=O)Nc1ccc(C(=O)NO)cc1)c1ccccc1
IC50 (U-266; cell viability, MTT): 5.3 µM

CCN(CC)c1ccc2c(c1)Oc1cc(N(CC)CC)ccc1C21c2ccccc2C(=O)N1N=Cc1ccnc(-c2cc(C)ccn2)c1.Cc1c(C)c(-c2ccc(-c3ccccc3)cc2)[c-](C)c1C.F[P-](F)(F)(F)(F)F.[Cl-].[Ir+3]
IC50 (HeLa cancer cells): 4.2 ± 0.2 µM

CC(=O)c1ccc(Oc2cc(-c3ccco3)nc3ccccc23)cc1
IC50 (activated neutrophils; beta-glucuronidase release): 7.5 µM

CC(=O)OC1CC2C3C(OC(C)=O)C4OC45C(O)C=CC(=O)C5(C)C3CCC2(C)C1C(C)(O)C1CC(C)=C(C)C(=O)O1 (stereo not drawn)
IC50 (KB; cell growth): 0.76 µM

CN(C)CCC[Se]c1cnc(-c2cccc(Cn3nc(-c4cccc(C#N)c4)ccc3=O)c2)nc1
IC50 (MHCC97H): 0.01 µM

CC[C@H](C)[C@@H]1NC(=O)[C@H](Cc2c[nH]c3ccccc23)NC(=O)[C@H](C)NC(=O)[C@H](C(C)C)NC(=O)[C@H](CC(C)C)NC(=O)[C@H](Cc2c[nH]c3ccccc23)NC1=O
IC50 (CT26 (mouse)): 12 µM

CC(=O)OC1C2C3CCC(C(C)(O)C4CC(C)=C(C)C(=O)O4)C3(C)CCC2C2(C)C(=O)C=CC(O)C23OC13 (stereo not drawn)
IC50 (Col2; cell growth): 0.14 µM

[Cl-].[Cl-].[Ru+2].c1ccc(-c2ccccn2)nc1.c1ccc(-c2ccccn2)nc1.c1cnc2c(c1)ccc1cccnc12
IC50 (Caco-2; dark): > 100 µM

CC1=C(C)C(=O)OC(C(C)(O)C2CCC3C4CC5OC56C(O)C=CC(=O)C6(C)C4CCC32C)C1 (stereo not drawn)
IC50 (K-562R; cell growth): 1.23 µM

CCC1=C(O)c2c(oc(-c3ccc(OC)c4ccccc34)cc2=O)C(CC)(CC)C1=O
IC50 (SK-BR-3; cell growth, SRB): 2.27 µM

COc1cc(/C=N/N2C(=O)c3ccccc3NC2c2cc(OC)c(O)c(OC)c2)cc(OC)c1O (stereo not drawn)
IC50 (human renal tubule TH-1; cytotoxicity): 374 µM

Cc1cc2[nH]c(C(=O)Nc3ccccc3C)c(CN3CCOCC3)c2s1
IC50 (neonatal foreskin fibroblasts; viability): > 20 µM

CCNc1cc2c(cc1C)C1(c3cc(C)c(NCC)cc3O2)c2ccccc2C(=O)N1N=Cc1ccnc(-c2cc(C)ccn2)c1.Cc1c(C)c(-c2ccc(-c3ccccc3)cc2)[c-](C)c1C.F[P-](F)(F)(F)(F)F.[Cl-].[Ir+3]
IC50 (BEAS-2B; concentration not given): 3 ± 0.2 µM

O=C1OCC2=C1C(c1cccc(Br)c1)C1=C(N2)C(=O)c2ccccc2C1=O (stereo not drawn)
IC50 (HepG2 cells; cell growth): < 0.036 µM

CC1=C(CO)C(=O)O[C@@H]([C@@H](C)[C@H]2CC[C@H]3[C@@H]4C[C@H]5O[C@]56[C@@H](O)C=CC(=O)[C@]6(C)[C@H]4[C@@H](O)C[C@]23C)C1
IC50 (Hs-578T; cell growth): 2.47 µM

O=C1NCC(Cc2ccccc2)N(CC2CCCN2CC(CC2CCCCC2)N2CC(Cc3ccc(O)cc3)N(CCc3ccccc3)C(=O)C2=O)C1=O (stereo not drawn)
IC50 (CHO-K1; viability): > 100 µM

C=CC(=O)N(c1cccc2ccccc12)S(=O)(=O)c1ccc(OC)cc1
IC50 (HCT-116; cell growth): 3.04 µM

Cc1ccc(C2C3=C(COC3=O)NC3=C2C(=O)c2ccccc2C3=O)cc1 (stereo not drawn)
IC50 (SK-LU-1 cells; cell growth): 1.65 ± 0.03 µM

O=C(/C=C/c1ccc(O)c(O)c1)NCCc1ccc(O)cc1
IC50 (RAW264.7; nitric oxide production; 24 h, added: LPS 100 ng/mL): 12.8 ± 1.61 µM

Oc1cccc(-c2cccc(O)n2)n1.[Cl-].[Cl-].[Ru+2].c1cnc2c(c1)ccc1cccnc12.c1cnc2c(c1)ccc1cccnc12
IC50 (MCF-10A; cell viability; added: blue light 450 nm, 1 h): 13 µM

CCN(CC)CC(=O)Nc1cccc(-n2cc(-c3ccc4ccc(-c5cn(-c6cccc(NC(=O)CN(CC)CC)c6)nn5)cc4c3)nn2)c1
IC50 (786-0): 2.3 µM

CC1=C(C)C(=O)OC(C(C)C2CCC3C4CC5OC56C(O)C=CC(=O)C6(CO)C4CCC23C)C1 (stereo not drawn)
IC50 (Hs-578T; cell growth): 0.47 µM

CC[C@@H](C)[C@H]1NC(=O)[C@@H]([C@H](C)O)NC(=O)[C@@H](Cc2c[nH]cn2)NC(=O)CNC(=O)[C@@H](CCCNC(=N)N)NC(=O)CNC(=O)[C@@H](Cc2ccccc2)NC1=O
IC50 (endothelial cells; VEGF-induced proliferation; added: VEGF): 0.00015 µM

CCCCCCCCCCCCCCCCOC(=O)C1=C(C)NC(=O)NC1c1cccc(O)c1 (stereo not drawn)
IC50 (glioma cell lines; cell growth): 10 µM

CCC1=C(O)c2c(oc(-c3cccc4ccccc34)cc2=O)C(CC)(CC)C1=O
IC50 (PC-3; cell growth, SRB): 1.03 µM

COc1ccc([C@H]2Oc3ccccc3C(=O)[C@]2(Cl)[N+](=O)[O-])cc1
IC50 (L1210; cell growth): 9 µM
